Published values gathered from unrelated publications.
Compare with care: the assays were run in different laboratories.
CDK2: Cyclin-dependent kinase 2 (CDK2, Homo sapiens, UniProt P24941)
CDK2 with cyclin E1: Cyclin-dependent kinase 2, with cyclin E1 (CDK2, Homo sapiens, UniProt P24941)
CDK2 with cyclin A: Cyclin-dependent kinase 2, with cyclin A (CDK2, Homo sapiens, UniProt P24941)

The inhibition of `CN(C)[C@H]1C[C@@]23CC[C@@]4(O2)C(=CC[C@]2(C)[C@@H](c5ccc6ccncc6c5)CC[C@H]24)C=C3[C@@H](O)[C@@H]1O` is reported as 2.1% (CDK2; ATP probe labelling, inhibitor, KiNativ profiling; 1 µM).
The inhibition of `CN(/N=C/c1ccccc1C(=O)O)c1nc(-c2ccccc2Cl)cs1` is reported as -11.6% (CDK2 with cyclin E1; enzyme activity, inhibitor; 1 µM).
`CS(C)(=O)=Nc1ccc(-c2ccc(-c3nc4cc(O[C@@H]5CO[C@H]6[C@@H]5OC[C@H]6O)[nH]c4cc3F)cc2)cc1` gave an inhibition of 4% (CDK2 with cyclin A; enzyme activity, inhibitor; 10 µM).
For `C[C@H](NCc1ccc(-c2ccc(C(F)(F)F)cc2)cc1)C(N)=O`, the inhibition was 4% (CDK2; cell-free assay, competition with immobilised ligand; 1 µM).
`O=C(CN1CN(c2ccccc2)C2(CCN(C(=O)c3cnc4[nH]ncc4c3)CC2)C1=O)NCC(F)(F)F` gave an inhibition of < 50% (CDK2; inhibitor; concentration not given).
With `CC(C)[C@H]1NC(=O)C[C@H]2/C=C/CCSSC[C@@H](NC1=O)C(=O)N[C@H](Cc1cccc3ccccc13)C(=O)NCC(=O)O2` the inhibition was -7.6% (CDK2 with cyclin E1; enzyme activity, inhibitor; 10 µM).
For `O=C1NC(=O)c2c1c1cc(F)c[n+]3c1c1c2c2cc(O)ccc2[n]1[Ru-4]312([N]=C=S)[S+]3CC[S+]1CC[S+]2CC3` (stereo not shown), the remaining activity was 82% (CDK2 with cyclin A; enzyme activity; 100 nM, human enzyme, added: 10 µM ATP; baseline: untreated).
With `Nc1ccc(/C=C/C(=O)N2CCc3c(oc4c(-c5ccc(F)cc5)cc(-c5ccc(C(=O)N6CCC(F)(F)CC6)cn5)cc34)C2)cn1` the remaining binding was 97% (CDK2; binding, competition with immobilised ligand; 1 µM).
`N[C@H](C(=O)N1CCCC1)C1CCN(c2nccc3c(-c4ncc(Cl)cc4Cl)cccc23)CC1` has an inhibition of 2.8% (CDK2 with cyclin A; kinase activity, inhibitor; 10 µM, added: ATP 1 mM).
`CCOC(=O)[C@](CC)(CCCSCCOCCOCCNC(=O)c1ccc(-c2c3ccc(=N)c(S(=O)(=O)O)c-3oc3c(S(=O)(=O)O)c(N)ccc23)c(C(=O)O)c1)NC(=O)c1ccc(C2CC2)c(Cc2ccc(F)cc2)n1` gave an inhibition of 5% (CDK2 with cyclin A; enzyme activity, inhibitor; 10 µM).
